Measured values of several laboratories.
A part holds a random share of what one study measured. Positions count from the first letter of the parent shown.

Series 1 — target: CCNA2, cyclin fold, Cln2 fusion (human); method: yeast growth competition, sequencing; sample: yeast; setting: strong parent motif; baseline: not given; direction: higher = stronger binding; measurement: normalised enrichment score
Parent: CDKN1B docking peptide (human); PSACRNLFGPVDH
S2G: 3.91
A3P: 1.52
S2E: 1.9
S2V: 3.13
H13D: 4.02
N6F: 0.513
C4F: 1.43
C4S: 2.33
V11E: 3.37
C4V: 2.65
F8M: 0.272
H13M: 3.49
P10I: 2.92
F8I: 0.695
D12I: 3.48
H13C: 3.9
F8S: 0.809
R5D: -0.208
G9L: 2.16
A3Y: 2.8
R5L: 0.195
L7E: -0.0895

Series 2 — method: aptamer microarray, sandwich; molecule type: DNA with 2'F-ANA; sample: in vitro; tested at: 200 nM; with: Cy3 exosite-II aptamer, 400 nM; direction: higher = stronger binding; measurement: mean fluorescence intensity; sequence: GGTTGGTGTGGTTGG
Target: Prothrombin, mature alpha-thrombin (F2, Homo sapiens, UniProt P00734)
Setting: whole 15-mer aptamer, many near background
2'F-ANA at 1 2 7 8 10 12 14: 46.4 a.u.
2'F-ANA at 7 10 11 12: 233 a.u.
2'F-ANA at 1 2 4 5 6 10 11 12 13: 82.4 a.u.
2'F-ANA at 2 4 10: 105 a.u.
2'F-ANA at 2 7 10 13 14 15: 90.9 a.u.
2'F-ANA at 1 2 4 6 7 8 9 10 12 13 14 15: 49.6 a.u.
2'F-ANA at 2 3 7 11 13 14 15: 432 a.u.
2'F-ANA at 1 4 5 6 8 9 10 12 15: 52 a.u.
2'F-ANA at 5 6 7 8 10 12 13 14 15: 55.3 a.u.
2'F-ANA at 1 2 3 4 5 7 12 13 15: 76.2 a.u.
2'F-ANA at 1 2 4 8 9 12 13: 185 a.u.
2'F-ANA at 1 3 6 9 10 12 13 15: 94.1 a.u.
2'F-ANA at 1 4 8 9 12 15: 317 a.u.
2'F-ANA at 1 6 7 9 10 14: 70.2 a.u.
2'F-ANA at 4 6 8 9 11 12 13 14: 73 a.u.
2'F-ANA at 1 2 4 7 8 11 13: 102 a.u.
2'F-ANA at 1 2 3 7 10 11 12: 82.4 a.u.
2'F-ANA at 1 2 3 4 8 9 10 14: 52.7 a.u.
2'F-ANA at 2 4 8 14: 132 a.u.
2'F-ANA at 1 2 4 5 6 7 9 10: 52.1 a.u.
2'F-ANA at 4 5 6 8 10 11 12 14 15: 46 a.u.
2'F-ANA at 6 7 9 10 11 12: 168 a.u.
2'F-ANA at 1 4 6 12 14 15: 58.2 a.u.

Series 3 — method: protein binding microarray; molecule type: double-stranded DNA, one strand shown; sample: in vitro; tested at: not given; baseline: not given; direction: higher = stronger binding; measurement: E-score
Target: Histone acetyltransferase KAT6A, both winged helices, GST fusion (KAT6A, Homo sapiens, UniProt Q92794, residues 1-181)
Setting: 8-mer, flanks averaged, mean of 2 arrays, mostly near background
Construct (chain): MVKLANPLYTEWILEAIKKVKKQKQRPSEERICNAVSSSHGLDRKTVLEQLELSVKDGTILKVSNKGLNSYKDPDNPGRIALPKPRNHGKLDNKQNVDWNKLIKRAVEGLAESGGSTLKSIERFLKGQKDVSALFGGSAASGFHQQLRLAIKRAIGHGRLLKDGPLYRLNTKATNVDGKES
GCCGGGCC: 0.208
AAGTATTA: -0.207
CCGGGTCG: 0.217
ACCTGCTG: -0.147
CTTTGGCA: -0.13
CAGTGGAG: -0.0543
GCCAGACA: -0.115
CGAGTGCA: 0.0551
TTAGACAA: 0.0373
CAGTCGTA: -0.0742
CTGCTCTC: -0.167
CTTCCAAC: -0.0801
GTCAGGAA: -0.0525
ACCATTTG: 0.0283
ACTGCCTC: -0.0824
GGCGCGTA: 0.31
ATACGAAT: -0.0171
CCTGTATC: 0.0295
AATCCAGC: -0.0514
GACGCAAC: 0.176
CTTGAAAC: -0.0303
AAAATGCC: -0.109
CCTTATGA: -0.0772

Series 4 — method: DHFR PCA, deep sequencing; sample: yeast; with: (+)-ABA 0.39 µM; baseline: wild-type fitted maximum; direction: higher = stronger binding; measurement: relative binding score
Target: ABI1, truncated, D143A, DHFR fusion (Arabidopsis thaliana)
Setting: methotrexate growth selection, single substitutions
Parent: PYL1, truncated, DHFR fusion (Arabidopsis thaliana); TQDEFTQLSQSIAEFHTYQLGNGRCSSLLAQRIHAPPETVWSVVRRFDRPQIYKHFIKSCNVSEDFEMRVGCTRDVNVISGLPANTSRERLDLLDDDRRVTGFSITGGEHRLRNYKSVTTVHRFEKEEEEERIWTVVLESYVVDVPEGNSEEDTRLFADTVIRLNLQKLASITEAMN; partner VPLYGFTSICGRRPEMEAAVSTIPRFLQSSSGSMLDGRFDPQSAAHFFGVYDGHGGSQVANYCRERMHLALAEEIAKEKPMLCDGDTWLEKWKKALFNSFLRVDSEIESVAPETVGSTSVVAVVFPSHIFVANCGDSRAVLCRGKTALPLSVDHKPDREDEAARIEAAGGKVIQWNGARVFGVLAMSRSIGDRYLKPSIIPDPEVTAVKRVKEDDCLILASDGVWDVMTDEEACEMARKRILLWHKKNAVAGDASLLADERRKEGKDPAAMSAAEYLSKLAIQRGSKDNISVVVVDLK
N114Y: 4.57%
T119F: -9.53%
A158Y: -1.99%
V76P: -11%
I105E: 0.175%
N61W: 28.2%
E38V: -2.71%
K58H: 12.8%
R88H: 62.8%
R32E: 40.7%
V76M: 6.2%
S11Q: 46.9%
Q31N: -12%
V44L: 22.6%
E125P: 48.9%
Q7I: 32.7%
H122P: -7.44%
V78I: 58.5%
F47P: -0.163%
D96W: -9.93%
P36T: 31%
R49I: 3.88%
V137C: 18.7%

Series 5 — method: RNA Bind-n-Seq; molecule type: RNA; sample: in vitro; tested at: 365 nM; baseline: no-protein control; direction: higher = stronger binding; measurement: RBNS enrichment (R)
Target: RNA binding protein fox-1 homolog 2, RRM domain, GST-SBP tag (RBFOX2, Homo sapiens, UniProt O43251-10, residues 100-194)
Setting: natural RNA segment, single round, ends assumed
Shared flanks, not repeated: GGGAGUUCUACAGUCCGACGAUC … UGGAAUUCUCGGGUGCCAA
Residues (chain): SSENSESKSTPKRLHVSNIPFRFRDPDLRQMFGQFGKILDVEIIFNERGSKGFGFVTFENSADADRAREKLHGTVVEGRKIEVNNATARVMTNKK
AUUUCCCAAUUAGUCUGUAUCUAUACUUGGGCUCUGUAUGUGAAUGAAGGUUGGUCACCCAUCCAGCCUAUUACCUUUUGCUUUGUGUAUUAAAAGUGCUGCAAAAUCUG: 0.638
UGACACUUCCCAAGAAGGCCAAACCUCUAACCGACAUUCCUGAAAUACGUGGCAUUAUUCUUUUUUGGAUUUCUCAUUUAUGGAAGGCUAACCCUCUGUUGACUGUAAGC: 0.293
UAUAGUUUUGAUAACCACAGUUUUAAAUCUUUUAUCUGUGCAUAAUAAAAAGAUAUAUAUCAGUUAUAAUAUGUGUCUUGUUAUCAUUAAAUUCUACCCUAAGGCUCAUG: 0.373
CCACAGGAAGUCCAGUCCCGACAGUGCCCUUGUUGCCUUUGAGCCAGAUCCAUGGCAAUGGUCUCCCCACAGACCGCAGGACUGAGCCUGGAGAGAGAAGUUGCUUGACG: 0.346
UAAUCAGAGCAAGACAAAUGAGAGCAAAGCCCCAUGUGACUCCUCCUACUGCUGUGUUGUUUCAAACUUACCAGGUCCUCUGUCAGUUUCAGAGGUCACCUGUGAAGCAU: 0.286
AAGCCCAUGUCAGGGCGAUCCUGGUUCAAAUGUGCCAUUUCCCGGGUUGAUGCUGCCACACUUUGUAGAGAGUUUAGCAACACAGUGUGCUUAGUCAGCGUAGGAAUCCU: 0.274
ACGGAGGCAGAGAAAAGAGAAAGUGUUUUAUAUACGGUACUUAUUUAAUAGCCCUUUUUAAUUAGAAAUUAAAACAGUUAAUUUAAUUAAAGAGUAGGGUUUUUUUCAGU: 0.525
UUCAGGUUUGAUGUAAGCAUGGGCUUACAUCCCCCAGGUACAUACUUUUACUUAUUGUGGGAUAACCUGGCACUAGUAGGCAGGUAAAGUCACAAAUUUGGUGUCUUUUC: 0.26
GCACAGAACAGUCUCUCCGUGGGAGGAGACAUUAUGGGGCGUCCACCACCACCCCUCCCUGGCCAUCCUCCUGGAAUGUGGUCUGCCCUCCACCAGAGCUCCUGCCUGCC: 0.909
GACUGAGAGACUGACUGAGAGACUGCUGACUUGUAUUUUUCAGAGCUGCAGGUGGCCUGCCACGCCUGCCUGGCCAAGUUUCUGUUCCCCUCCUCCUAAAGUCAAGGUGG: 0.481
GCCAAGUGGAUUUGGUACAGUGCGGCUGUCUAAUAAAUAAUCAAAAGCAUUUGAUAGAAAUCUGUCUUGCAGCACUGUCUUCACAUUUAAUGUUGCUUUCUCUUCUAGUC: 0.429
CAGAGUGUGCAAUGUUGAAAUGGAGCAGUAGGUGCUGAGGACUUCCACUACCAUUGUAGAUCCCCUUUCACUAAAUAUAAGACAUGCUAGCUAGCCUGGCUCAGUGAGCU: 4.45

Series 6 — target: CRIPT, C-terminal peptide; method: DHFR complementation, deep sequencing; sample: yeast; baseline: wild type; direction: higher = weaker binding; measurement: binding free energy change
Setting: single substitutions, model-inferred values
Parent: ERBIN, PDZ domain 1 (human); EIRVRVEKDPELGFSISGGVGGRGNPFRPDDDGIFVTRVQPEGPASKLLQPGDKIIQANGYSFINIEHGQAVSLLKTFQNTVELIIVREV; partner TKNYKQTSV
R5G: 0.102 kcal/mol
G13A: 1.17 kcal/mol
F35V: 0.833 kcal/mol
F78W: 0.142 kcal/mol
I86M: 0.0556 kcal/mol
S46Q: 0.0043 kcal/mol
E11D: -0.364 kcal/mol
E67R: 0.0115 kcal/mol
L75W: 2.55 kcal/mol
I66M: 0.152 kcal/mol
G18P: 1.59 kcal/mol
N80G: -0.212 kcal/mol
N80P: 0.247 kcal/mol
S62A: 0.0741 kcal/mol
I34A: 0.899 kcal/mol
V6H: 0.606 kcal/mol
F78G: 0.155 kcal/mol
R3P: 0.0673 kcal/mol
F78L: 0.115 kcal/mol
Q40P: 0.678 kcal/mol
Q79V: 0.0257 kcal/mol
L75K: 1.52 kcal/mol

Further values, each from its own experiment
PhoQ, residues 284 288 289 292 302 303 SNGLAW
fold induction (PhoP, residues 12 14 15 18 19 NQAHL (Escherichia coli, UniProt P23836); Sort-seq, measured: YFP reporter; E. coli; PhoQ-PhoP variant library, with: 10 µM Mg2+; baseline: high Mg2+ state, higher = stronger signaling): 7.71

Repeated from above (series 6):
N80G: -0.212 kcal/mol
L75W: 2.55 kcal/mol
F35V: 0.833 kcal/mol
R3P: 0.0673 kcal/mol
Q79V: 0.0257 kcal/mol
F78G: 0.155 kcal/mol
F78L: 0.115 kcal/mol
E67R: 0.0115 kcal/mol
Q40P: 0.678 kcal/mol
V6H: 0.606 kcal/mol
S62A: 0.0741 kcal/mol
R5G: 0.102 kcal/mol
G18P: 1.59 kcal/mol
I66M: 0.152 kcal/mol
I86M: 0.0556 kcal/mol
G13A: 1.17 kcal/mol
E11D: -0.364 kcal/mol
I34A: 0.899 kcal/mol
S46Q: 0.0043 kcal/mol
